Measurements collected from several papers.
Numbered parts are unrelated; each lists some results of a single study. ± gives the spread as reported.
UniProt O04197, sequence (whole entry, looked up): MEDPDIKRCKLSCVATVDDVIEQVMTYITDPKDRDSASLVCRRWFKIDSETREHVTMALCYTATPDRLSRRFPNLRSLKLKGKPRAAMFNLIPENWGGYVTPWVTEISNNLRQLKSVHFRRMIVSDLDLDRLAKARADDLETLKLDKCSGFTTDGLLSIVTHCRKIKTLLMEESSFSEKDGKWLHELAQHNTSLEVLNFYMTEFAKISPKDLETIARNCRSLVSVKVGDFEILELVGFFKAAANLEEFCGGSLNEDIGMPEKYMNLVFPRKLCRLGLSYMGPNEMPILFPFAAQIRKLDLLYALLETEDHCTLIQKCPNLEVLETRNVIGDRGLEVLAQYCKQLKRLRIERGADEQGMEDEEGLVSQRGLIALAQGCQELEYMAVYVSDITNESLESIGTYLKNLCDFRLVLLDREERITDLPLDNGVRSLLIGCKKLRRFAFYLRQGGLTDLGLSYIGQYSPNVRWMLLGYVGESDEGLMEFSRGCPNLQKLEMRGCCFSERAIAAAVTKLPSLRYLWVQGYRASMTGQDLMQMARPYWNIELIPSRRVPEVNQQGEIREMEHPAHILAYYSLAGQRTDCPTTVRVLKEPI
UniProt Q9LMA8, sequence (whole entry, looked up): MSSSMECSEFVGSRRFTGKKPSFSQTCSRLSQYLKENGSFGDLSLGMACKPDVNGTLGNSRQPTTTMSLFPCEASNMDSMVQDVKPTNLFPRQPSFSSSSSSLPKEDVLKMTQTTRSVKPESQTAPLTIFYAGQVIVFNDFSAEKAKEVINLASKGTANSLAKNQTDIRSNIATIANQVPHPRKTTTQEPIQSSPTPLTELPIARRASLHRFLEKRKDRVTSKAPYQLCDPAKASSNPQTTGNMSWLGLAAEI

Block 1 — cell line: human erythrocytes, washed; time: 1 h; temperature: 37 °C; notes: 2% v/v RBC suspension
SMILES	HD50 [µmol/L]
CC[C@H](C)[C@H](NC(=O)CNC(=O)[C@H](C)NC(=O)[C@@H]1CCCN1C(=O)CNC(=O)[C@H](C)NC(=O)[C@H](CCC(=O)O)NC(=O)[C@@H]1CCCN1C(=O)[C@H](CC(=O)O)NC(=O)[C@H](C)NC(=O)[C@H](CCC(=O)O)NC(=O)[C@H](C)NC(=O)[C@H](CC(=O)O)NC(=O)[C@H](C)NC(=O)[C@H](CCC(=O)O)NC(=O)[C@H](C)NC(=O)[C@H](CCC(=O)O)NC(=O)[C@@H]1CCCN1C(=O)[C@@H](N)CCC(=O)O)C(=O)NCC(=O)N[C@@H](C)C(=O)N[C@H](C(=O)N[C@@H](CC(C)C)C(=O)N[C@@H](CCCCN)C(=O)N[C@H](C(=O)N[C@@H](CC(C)C)C(=O)N[C@H](C(=O)N[C@H](C(=O)NCC(=O)N[C@@H](CC(C)C)C(=O)N1CCC[C@H]1C(=O)N[C@@H](C)C(=O)N[C@@H](CC(C)C)C(=O)N[C@H](C(=O)N[C@@H](CO)C(=O)N[C@@H](Cc1c[nH]c2ccccc12)C(=O)N[C@H](C(=O)N[C@@H](CCCCN)C(=O)N[C@@H](CCCNC(=N)N)C(=O)N[C@@H](CCCCN)C(=O)N[C@@H](CCCNC(=N)N)C(=O)N[C@@H](CCC(N)=O)C(=O)N[C@@H](CCC(N)=O)C(N)=O)[C@@H](C)CC)[C@@H](C)CC)[C@@H](C)O)[C@@H](C)O)C(C)C)C(C)C	60 ± 3.7
CC[C@H](C)[C@H](NC(=O)CNC(=O)[C@H](C)NC(=O)[C@H](CCC(=O)O)NC(=O)[C@@H]1CCCN1C(=O)[C@H](CC(=O)O)NC(=O)[C@H](C)N)C(=O)NCC(=O)N[C@@H](C)C(=O)N[C@H](C(=O)N[C@@H](CC(C)C)C(=O)N[C@@H](CCCCN)C(=O)N[C@H](C(=O)N[C@@H](CC(C)C)C(=O)N[C@H](C(=O)N[C@H](C(=O)NCC(=O)N[C@@H](CC(C)C)C(=O)N1CCC[C@H]1C(=O)N[C@@H](C)C(=O)N[C@@H](CC(C)C)C(=O)N[C@H](C(=O)N[C@@H](CO)C(=O)N[C@@H](Cc1c[nH]c2ccccc12)C(=O)N[C@H](C(=O)N[C@@H](CCCCN)C(=O)N[C@@H](CCCNC(=N)N)C(=O)N[C@@H](CCCCN)C(=O)N[C@@H](CCCNC(=N)N)C(=O)N[C@@H](CCC(N)=O)C(=O)N[C@@H](CCC(N)=O)C(N)=O)[C@@H](C)CC)[C@@H](C)CC)[C@@H](C)O)[C@@H](C)O)C(C)C)C(C)C	6.2 ± 0.2
CC[C@H](C)[C@H](NC(=O)CNC(=O)[C@H](C)NC(=O)[C@@H]1CCCN1C(=O)CNC(=O)[C@H](C)NC(=O)[C@H](CCC(=O)O)NC(=O)[C@H](C)NC(=O)[C@H](CC(=O)O)NC(=O)[C@H](C)NC(=O)[C@H](CCC(=O)O)NC(=O)[C@H](C)NC(=O)[C@H](CCC(=O)O)NC(=O)[C@@H]1CCCN1C(=O)[C@@H](N)CCC(=O)O)C(=O)NCC(=O)N[C@@H](C)C(=O)N[C@H](C(=O)N[C@@H](CC(C)C)C(=O)N[C@@H](CCCCN)C(=O)N[C@H](C(=O)N[C@@H](CC(C)C)C(=O)N[C@H](C(=O)N[C@H](C(=O)NCC(=O)N[C@@H](CC(C)C)C(=O)N1CCC[C@H]1C(=O)N[C@@H](C)C(=O)N[C@@H](CC(C)C)C(=O)N[C@H](C(=O)N[C@@H](CO)C(=O)N[C@@H](Cc1c[nH]c2ccccc12)C(=O)N[C@H](C(=O)N[C@@H](CCCCN)C(=O)N[C@@H](CCCNC(=N)N)C(=O)N[C@@H](CCCCN)C(=O)N[C@@H](CCCNC(=N)N)C(=O)N[C@@H](CCC(N)=O)C(=O)N[C@@H](CCC(N)=O)C(N)=O)[C@@H](C)CC)[C@@H](C)CC)[C@@H](C)O)[C@@H](C)O)C(C)C)C(C)C	54.2 ± 2.2

Block 2 — species: Kunming mice both sexes; route: intraperitoneal; time: 7 days
Structure (SMILES)	LD50
CCC1NC2CC3(C(=O)N(OC)c4cc(OC)ccc43)C3OCC2C1C3O (stereo not shown)	0.17 mg/kg
C=CC12CNC3C4COC(CC41)C1(C(=O)Nc4ccccc41)C32 (stereo not shown)	> 30 mg/kg
CCC1=NC2CC3(C(=O)N(OC)c4ccccc43)C3OCC2C1(O)C3O (stereo not shown)	3.59 mg/kg
C=CC12CN(C)C3C4COC(CC41)C1(C(=O)N(OC)c4ccccc41)C32 (stereo not shown)	> 30 mg/kg
CC=C1CNC2CC3(C(=O)N(OC)c4cc(OC)ccc43)C3CC1C2CO3 (stereo not shown)	0.15 mg/kg
CCC1=NC2CC3(C(=O)N(OC)c4cc(OC)ccc43)C3OCC2C1C3O (stereo not shown)	0.41 mg/kg
CCC1NC2CC3(C(=O)N(OC)c4ccccc43)C3OCC2C1C3O (stereo not shown)	0.17 mg/kg
COc1ccc2c(c1)N(OC)C(=O)C21CC2N=C(C(C)=O)C3CC1OCC23 (stereo not shown)	> 30 mg/kg

Block 3 — cell line: HEK293 cells; technique: resazurin; time: 24 h
SMILES	CC50
CC[C@H](C)[C@H](NC(=O)[C@H](Cc1ccccc1)NC(=O)[C@H](CC(=O)O)NC(=O)[C@H](CCCCN)NC(=O)[C@H](C)NC(=O)[C@H](CCCCN)NC(=O)[C@H](CC(N)=O)NC(=O)[C@H](CC(C)C)NC(=O)[C@H](Cc1c[nH]c2ccccc12)NC(=O)[C@H](CCC(=O)O)NC(=O)[C@H](CCCCN)NC(=O)[C@@H](NC(=O)CNC(=O)[C@H](C)N)[C@@H](C)O)C(=O)N[C@@H](CCCCN)C(=O)N[C@@H](CCC(=O)O)C(=O)N[C@@H](CCCCN)C(=O)NCC(=O)N[C@@H](CC(C)C)C(=O)NCC(=O)N[C@@H](CCSC)C(=O)N[C@@H](CC(C)C)C(=O)N[C@@H](CCCNC(=N)N)C(=O)N[C@@H](C)C(=O)N[C@@H](C)C(=O)N[C@@H](C)C(=O)N[C@@H](CC(N)=O)C(=O)N[C@@H](C)C(=O)N[C@@H](C)C(=O)N[C@@H](CC(C)C)C(=O)N[C@@H](CC(N)=O)C(=O)O	> 100 µM
CC[C@H](C)[C@H](NC(=O)[C@H](Cc1ccccc1)NC(=O)[C@H](CC(=O)O)NC(=O)[C@H](CCCCN)NC(=O)[C@H](C)NC(=O)[C@H](CCCCN)NC(=O)[C@H](CC(N)=O)NC(=O)[C@H](CC(C)C)NC(=O)[C@H](Cc1c[nH]c2ccccc12)NC(=O)[C@H](CCC(=O)O)NC(=O)[C@H](CCCCN)NC(=O)[C@@H](NC(=O)CNC(=O)[C@H](C)N)[C@@H](C)O)C(=O)N[C@@H](CCCCN)C(=O)N[C@@H](CCC(=O)O)C(=O)N[C@@H](CCCCN)C(=O)NCC(=O)N1CCC[C@H]1C(=O)NCC(=O)N[C@@H](CCSC)C(=O)N[C@@H](CC(C)C)C(=O)N[C@@H](CO)C(=O)N[C@@H](C)C(=O)N[C@@H](C)C(=O)N[C@@H](C)C(=O)N[C@@H](CC(N)=O)C(=O)N[C@@H](C)C(=O)N[C@@H](C)C(=O)N[C@@H](CC(C)C)C(=O)N[C@@H](CC(N)=O)C(=O)O	> 250 µM
CC[C@H](C)[C@H](NC(=O)CNC(=O)[C@H](CC(C)C)NC(=O)CNC(=O)[C@H](CCCCN)NC(=O)[C@H](CCC(=O)O)NC(=O)[C@H](CCCCN)NC(=O)[C@@H](NC(=O)[C@H](Cc1ccccc1)NC(=O)[C@H](CC(=O)O)NC(=O)[C@H](CCCCN)NC(=O)[C@H](C)NC(=O)[C@H](CCCCN)NC(=O)[C@H](CC(N)=O)NC(=O)[C@H](CC(C)C)NC(=O)[C@H](Cc1c[nH]c2ccccc12)NC(=O)[C@H](CC(=O)O)NC(=O)[C@H](CCCCN)NC(=O)[C@@H](NC(=O)CNC(=O)[C@H](C)N)[C@@H](C)O)[C@@H](C)CC)C(=O)N[C@@H](CC(C)C)C(=O)N[C@@H](CO)C(=O)N[C@@H](C)C(=O)N[C@@H](C)C(=O)N[C@@H](C)C(=O)N[C@@H](CC(N)=O)C(=O)N[C@@H](C)C(=O)N[C@@H](C)C(=O)N[C@H](C(=O)N[C@@H](CC(N)=O)C(=O)O)[C@@H](C)CC	> 250 µM

Mixed results
SMILES	tested on	assay	system	conditions	endpoint	result
CC(C)C[C@@H]1NC(=O)[C@H](CCCNC(=N)N)NC(=O)[C@@H]2CCCN2C(=O)[C@@H]2CSSC[C@H](NC(=O)CNC(=O)[C@@H]3CCCN3C(=O)[C@H](CCCCN)NC(=O)[C@H](CC(=O)O)NC(=O)[C@@H](NC(=O)CN)C(C)C)C(=O)N[C@@H](CCCNC(=N)N)C(=O)N[C@@H](Cc3ccc(O)cc3)C(=O)N[C@@H](CC(C)C)C(=O)N[C@@H](Cc3ccccc3)C(=O)NCC(=O)NCC(=O)N[C@H]3CSSC[C@H](NC(=O)CNC1=O)C(=O)N[C@@H](CCCCN)C(=O)NCC(=O)N[C@@H](CCCCN)C(=O)NCC(=O)N[C@@H](Cc1c[nH]cn1)C(=O)N[C@@H](CC(=O)O)C(=O)N[C@@H](Cc1ccc(O)cc1)C(=O)N[C@H](C(=O)N[C@@H](C)C(=O)N[C@@H](Cc1c[nH]c4ccccc14)C(=O)N[C@@H](CC(=O)O)C(=O)NCC(=O)N[C@H](C(=O)N[C@@H](Cc1ccccc1)C(=O)N[C@@H](CO)C(=O)N[C@@H](CC(=O)O)C(=O)O)[C@@H](C)O)CSSC[C@H](NC(=O)[C@H](CC(=O)O)NC(=O)[C@H](CC(=O)O)NC(=O)[C@H](CC(=O)O)NC(=O)[C@H](CO)NC(=O)[C@H](CCCCN)NC3=O)C(=O)N2	–	–	mouse small DRG neurons	1 µM	neurons with shorter latency	89%
CCC1C=C(C(=O)NC2(C(=O)O)CC2CC)C2CCC(=O)C2C1 (stereo not shown)	COI1/TIFY10A, with JAZ1 (Arabidopsis thaliana, UniProt O04197+Q9LMA8)	saturation binding	–	dialyzed COI1, together with: 1 µM Ins(1,2,4,5,6)P5	Kd	0.03 ± 0.005 µM

Repeated from above (block 1):
SMILES	HD50 [µmol/L]
CC[C@H](C)[C@H](NC(=O)CNC(=O)[C@H](C)NC(=O)[C@@H]1CCCN1C(=O)CNC(=O)[C@H](C)NC(=O)[C@H](CCC(=O)O)NC(=O)[C@@H]1CCCN1C(=O)[C@H](CC(=O)O)NC(=O)[C@H](C)NC(=O)[C@H](CCC(=O)O)NC(=O)[C@H](C)NC(=O)[C@H](CC(=O)O)NC(=O)[C@H](C)NC(=O)[C@H](CCC(=O)O)NC(=O)[C@H](C)NC(=O)[C@H](CCC(=O)O)NC(=O)[C@@H]1CCCN1C(=O)[C@@H](N)CCC(=O)O)C(=O)NCC(=O)N[C@@H](C)C(=O)N[C@H](C(=O)N[C@@H](CC(C)C)C(=O)N[C@@H](CCCCN)C(=O)N[C@H](C(=O)N[C@@H](CC(C)C)C(=O)N[C@H](C(=O)N[C@H](C(=O)NCC(=O)N[C@@H](CC(C)C)C(=O)N1CCC[C@H]1C(=O)N[C@@H](C)C(=O)N[C@@H](CC(C)C)C(=O)N[C@H](C(=O)N[C@@H](CO)C(=O)N[C@@H](Cc1c[nH]c2ccccc12)C(=O)N[C@H](C(=O)N[C@@H](CCCCN)C(=O)N[C@@H](CCCNC(=N)N)C(=O)N[C@@H](CCCCN)C(=O)N[C@@H](CCCNC(=N)N)C(=O)N[C@@H](CCC(N)=O)C(=O)N[C@@H](CCC(N)=O)C(N)=O)[C@@H](C)CC)[C@@H](C)CC)[C@@H](C)O)[C@@H](C)O)C(C)C)C(C)C	60 ± 3.7
